Measured values of several laboratories.
Protocols differ between the studies behind these lines. Numbers after ± are the reported error.
lasR: Transcriptional activator protein LasR (lasR, Pseudomonas aeruginosa, UniProt P25084)
Oprm1: Mu-type opioid receptor (Oprm1, Mus musculus, UniProt P42866)
Chain of UniProt P26718 (whole entry, looked up): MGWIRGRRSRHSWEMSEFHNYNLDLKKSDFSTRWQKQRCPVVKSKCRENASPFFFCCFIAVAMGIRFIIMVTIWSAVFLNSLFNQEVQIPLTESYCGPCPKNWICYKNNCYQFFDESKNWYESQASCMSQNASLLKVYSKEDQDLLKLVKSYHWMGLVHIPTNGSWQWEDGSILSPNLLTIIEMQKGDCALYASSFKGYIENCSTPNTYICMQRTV
Chain of UniProt A5GZW8 (whole entry, looked up): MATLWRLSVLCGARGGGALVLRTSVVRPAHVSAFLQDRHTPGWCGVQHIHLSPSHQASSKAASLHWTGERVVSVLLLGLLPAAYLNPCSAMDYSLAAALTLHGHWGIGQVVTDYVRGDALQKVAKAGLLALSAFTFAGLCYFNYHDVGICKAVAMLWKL
Chain of UniProt O43525 (whole entry, looked up): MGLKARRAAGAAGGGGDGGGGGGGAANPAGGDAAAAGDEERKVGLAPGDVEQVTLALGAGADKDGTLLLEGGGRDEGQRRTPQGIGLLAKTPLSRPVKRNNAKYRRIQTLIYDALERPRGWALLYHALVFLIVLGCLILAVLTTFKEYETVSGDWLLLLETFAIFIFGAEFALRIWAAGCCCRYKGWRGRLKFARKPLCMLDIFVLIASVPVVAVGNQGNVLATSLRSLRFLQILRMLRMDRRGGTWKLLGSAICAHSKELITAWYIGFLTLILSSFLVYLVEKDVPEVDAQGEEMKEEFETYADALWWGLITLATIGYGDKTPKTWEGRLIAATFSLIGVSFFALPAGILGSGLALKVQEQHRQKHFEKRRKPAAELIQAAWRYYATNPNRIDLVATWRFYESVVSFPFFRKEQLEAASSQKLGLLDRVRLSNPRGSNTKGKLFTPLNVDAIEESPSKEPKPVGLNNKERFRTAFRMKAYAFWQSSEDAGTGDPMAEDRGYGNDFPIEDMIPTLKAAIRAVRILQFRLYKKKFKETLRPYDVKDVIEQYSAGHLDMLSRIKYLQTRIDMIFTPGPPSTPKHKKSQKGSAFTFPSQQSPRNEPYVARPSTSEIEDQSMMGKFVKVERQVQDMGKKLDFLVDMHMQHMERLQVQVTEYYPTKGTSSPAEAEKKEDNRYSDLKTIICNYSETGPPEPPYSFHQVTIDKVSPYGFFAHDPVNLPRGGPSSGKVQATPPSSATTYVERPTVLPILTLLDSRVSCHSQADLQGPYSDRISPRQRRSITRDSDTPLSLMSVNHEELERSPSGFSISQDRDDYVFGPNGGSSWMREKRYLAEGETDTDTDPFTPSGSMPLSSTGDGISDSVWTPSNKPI
Chain of UniProt P35372 (whole entry, looked up): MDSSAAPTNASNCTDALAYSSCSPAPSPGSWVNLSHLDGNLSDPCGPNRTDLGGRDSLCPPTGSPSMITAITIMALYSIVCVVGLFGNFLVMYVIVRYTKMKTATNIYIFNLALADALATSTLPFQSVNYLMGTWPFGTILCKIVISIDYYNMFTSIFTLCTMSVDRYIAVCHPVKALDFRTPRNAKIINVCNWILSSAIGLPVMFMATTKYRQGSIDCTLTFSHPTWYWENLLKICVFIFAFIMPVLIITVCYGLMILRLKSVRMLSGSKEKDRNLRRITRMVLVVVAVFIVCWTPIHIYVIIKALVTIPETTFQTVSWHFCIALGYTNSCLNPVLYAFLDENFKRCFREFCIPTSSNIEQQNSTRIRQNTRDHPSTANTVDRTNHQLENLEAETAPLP
Chain of UniProt P30559 (whole entry, looked up): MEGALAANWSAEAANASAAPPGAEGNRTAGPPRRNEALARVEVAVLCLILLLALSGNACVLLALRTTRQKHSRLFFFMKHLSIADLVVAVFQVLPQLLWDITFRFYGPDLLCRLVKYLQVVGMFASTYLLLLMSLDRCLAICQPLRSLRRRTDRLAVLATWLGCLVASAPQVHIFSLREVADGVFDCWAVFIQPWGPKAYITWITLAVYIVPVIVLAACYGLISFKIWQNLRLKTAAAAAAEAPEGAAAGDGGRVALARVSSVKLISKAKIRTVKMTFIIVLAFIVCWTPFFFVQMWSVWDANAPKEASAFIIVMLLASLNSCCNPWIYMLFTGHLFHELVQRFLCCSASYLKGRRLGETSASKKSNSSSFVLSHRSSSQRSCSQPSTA
Chain of UniProt Q007T0 (whole entry, looked up): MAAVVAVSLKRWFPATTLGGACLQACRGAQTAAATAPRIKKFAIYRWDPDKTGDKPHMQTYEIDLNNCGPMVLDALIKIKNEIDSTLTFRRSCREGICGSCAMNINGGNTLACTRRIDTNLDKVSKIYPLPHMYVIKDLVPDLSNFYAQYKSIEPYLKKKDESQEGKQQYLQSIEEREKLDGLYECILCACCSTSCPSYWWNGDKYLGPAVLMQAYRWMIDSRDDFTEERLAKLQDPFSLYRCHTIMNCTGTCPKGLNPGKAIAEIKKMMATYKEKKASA
Chain of UniProt Q15858 (whole entry, looked up): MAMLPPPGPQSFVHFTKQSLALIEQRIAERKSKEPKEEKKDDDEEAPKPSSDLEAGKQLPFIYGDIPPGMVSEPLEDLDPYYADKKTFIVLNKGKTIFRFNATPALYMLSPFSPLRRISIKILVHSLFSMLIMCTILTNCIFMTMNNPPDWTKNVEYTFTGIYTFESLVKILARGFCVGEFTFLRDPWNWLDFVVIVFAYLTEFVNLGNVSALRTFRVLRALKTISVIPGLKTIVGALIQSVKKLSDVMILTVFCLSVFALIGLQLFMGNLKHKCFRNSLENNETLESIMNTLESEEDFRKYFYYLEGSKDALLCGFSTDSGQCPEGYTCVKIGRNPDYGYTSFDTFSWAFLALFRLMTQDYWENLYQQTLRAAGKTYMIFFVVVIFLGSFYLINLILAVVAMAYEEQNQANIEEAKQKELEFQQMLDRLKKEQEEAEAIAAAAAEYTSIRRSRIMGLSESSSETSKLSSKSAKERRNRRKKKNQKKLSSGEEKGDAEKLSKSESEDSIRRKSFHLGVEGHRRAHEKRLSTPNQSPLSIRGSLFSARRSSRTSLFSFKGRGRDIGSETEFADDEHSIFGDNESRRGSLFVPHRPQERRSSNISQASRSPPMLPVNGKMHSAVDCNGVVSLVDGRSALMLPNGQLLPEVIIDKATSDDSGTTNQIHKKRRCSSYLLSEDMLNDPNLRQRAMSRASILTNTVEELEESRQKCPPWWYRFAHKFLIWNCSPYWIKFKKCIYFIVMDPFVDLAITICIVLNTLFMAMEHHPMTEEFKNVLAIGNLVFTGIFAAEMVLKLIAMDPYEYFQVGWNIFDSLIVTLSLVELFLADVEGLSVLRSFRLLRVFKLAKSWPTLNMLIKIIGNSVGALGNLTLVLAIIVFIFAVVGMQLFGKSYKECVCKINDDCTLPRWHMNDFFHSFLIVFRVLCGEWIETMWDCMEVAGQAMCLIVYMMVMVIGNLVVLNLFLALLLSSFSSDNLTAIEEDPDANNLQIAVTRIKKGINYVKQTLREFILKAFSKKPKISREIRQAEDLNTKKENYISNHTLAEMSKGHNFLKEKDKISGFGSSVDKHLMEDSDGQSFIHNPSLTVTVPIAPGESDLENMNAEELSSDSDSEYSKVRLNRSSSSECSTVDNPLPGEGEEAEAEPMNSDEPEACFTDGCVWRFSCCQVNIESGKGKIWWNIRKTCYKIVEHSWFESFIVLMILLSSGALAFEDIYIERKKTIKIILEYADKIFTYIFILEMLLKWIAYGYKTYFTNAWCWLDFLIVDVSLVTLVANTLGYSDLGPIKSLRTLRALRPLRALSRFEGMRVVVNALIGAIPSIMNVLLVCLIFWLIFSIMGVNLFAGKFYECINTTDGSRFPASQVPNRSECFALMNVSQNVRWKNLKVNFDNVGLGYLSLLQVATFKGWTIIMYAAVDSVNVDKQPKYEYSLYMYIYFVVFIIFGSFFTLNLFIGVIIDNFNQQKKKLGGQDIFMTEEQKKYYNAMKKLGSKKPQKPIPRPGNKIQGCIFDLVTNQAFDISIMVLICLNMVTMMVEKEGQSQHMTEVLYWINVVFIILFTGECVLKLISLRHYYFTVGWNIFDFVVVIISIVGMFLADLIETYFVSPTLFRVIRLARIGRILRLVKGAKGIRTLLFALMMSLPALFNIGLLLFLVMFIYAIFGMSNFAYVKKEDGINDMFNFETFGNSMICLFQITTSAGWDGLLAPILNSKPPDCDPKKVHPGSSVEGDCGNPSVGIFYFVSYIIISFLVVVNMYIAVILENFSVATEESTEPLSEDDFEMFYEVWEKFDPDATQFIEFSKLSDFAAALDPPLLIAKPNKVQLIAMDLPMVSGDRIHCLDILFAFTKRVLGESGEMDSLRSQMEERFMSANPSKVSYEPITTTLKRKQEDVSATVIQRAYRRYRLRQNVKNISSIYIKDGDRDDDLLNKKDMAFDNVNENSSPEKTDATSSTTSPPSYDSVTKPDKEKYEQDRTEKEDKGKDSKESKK
Chain of UniProt P21397 (whole entry, looked up): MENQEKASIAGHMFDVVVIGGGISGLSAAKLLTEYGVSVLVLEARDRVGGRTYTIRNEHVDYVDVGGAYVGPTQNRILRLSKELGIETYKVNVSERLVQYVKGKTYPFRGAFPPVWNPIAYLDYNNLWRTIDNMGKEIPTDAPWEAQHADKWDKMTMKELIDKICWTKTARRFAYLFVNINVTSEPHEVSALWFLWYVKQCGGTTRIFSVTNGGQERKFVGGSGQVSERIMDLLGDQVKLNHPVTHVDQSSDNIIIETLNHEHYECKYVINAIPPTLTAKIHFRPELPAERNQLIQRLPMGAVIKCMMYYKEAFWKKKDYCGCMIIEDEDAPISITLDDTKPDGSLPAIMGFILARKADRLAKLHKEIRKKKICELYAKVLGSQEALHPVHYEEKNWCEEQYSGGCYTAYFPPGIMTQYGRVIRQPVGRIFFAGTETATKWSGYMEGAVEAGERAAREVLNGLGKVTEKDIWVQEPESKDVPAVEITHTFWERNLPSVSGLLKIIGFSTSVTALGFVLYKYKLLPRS
Chain of UniProt D0VWV4 (whole entry, looked up): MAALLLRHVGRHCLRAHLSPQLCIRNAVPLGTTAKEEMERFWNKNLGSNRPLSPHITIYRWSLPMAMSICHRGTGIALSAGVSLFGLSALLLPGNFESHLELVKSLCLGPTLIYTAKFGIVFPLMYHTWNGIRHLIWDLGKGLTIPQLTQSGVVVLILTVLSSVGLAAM

Compound = CN(C)[C@H](CNC(=O)/C=C/c1cccc2ccccc12)Cc1ccc(O)cc1; target or system = Mu-type opioid receptor, with Gi/o/z proteins (OPRM1, Homo sapiens, UniProt P35372); assay = receptor activation, agonist; measurement = Emax; result = 67 to 89%
Compound = CCCCc1cn(CC(=O)N[C@H]2CCOC2=O)nn1; target or system = lasR; assay = reporter gene, agonist; system = Escherichia coli, DH5α pJN105L/pSC11; setting = 100 µM; scale = relative to: OdDHL at same concentration; measurement = activation; result = 0%
Compound = CN[C@](C)(C[18F])C(=O)O; target or system = DU-145 tumour model; system = host not given, tumour; setting = 2 h, tumour-bearing; measurement = tracer uptake; result = 4.3 %ID/g
Compound = C=CC(=O)Nc1cccc(-c2cnc3[nH]cc(C(=O)NC(C)(C)C)c3n2)c1; target or system = JAK2 (Homo sapiens, UniProt O60674); assay = enzyme activity, inhibitor; scale = relative to: JAK3 over JAK2; measurement = selectivity ratio; result = 378 fold
Compound = N[C@@H](Cc1c[nH]c2ccccc12)C(=O)O; target or system = Transcription attenuation protein MtrB, Δ71 truncation (mtrB, Geobacillus stearothermophilus, UniProt Q9X6J6); assay = isothermal titration calorimetry; setting = concentration not given, 25 °C; measurement = binding stoichiometry; result = 12 ± 0.02
Compound = CC1=C(C)C(=O)N(Cc2ccc(F)cc2)C1=O; target or system = Amyloid-beta precursor protein, amyloid-beta 1-40 oligomers (APP, Homo sapiens, UniProt P05067); assay = binding, STD NMR; setting = highest STD; measurement = STD NMR signal; result = 7.4%
Compound = CC(C)C[C@H](NC(=O)[C@@H](N)Cc1ccccc1)C(=O)O; target or system = Amyloid-beta precursor protein, Aβ40 (APP, Homo sapiens, UniProt P05067); assay = binding, ion mobility MS, measured: Aβ monomer; setting = at least 1 ligands; measurement = monomer bound; result = 34 ± 12%
Compound = CCCCCCCCCCCCNC(=O)CC(=O)c1ccccc1; target or system = lasR; assay = reporter gene, antagonist; system = Pseudomonas aeruginosa PAO-JP2 GFP reporter; setting = together with: 150 nM OdDHL; measurement = maximum inhibition; result = 91%
Compound = CCN(CC)CCOc1ccc(-c2nnn(Cc3ccc(OC)cc3)c2N)cc1; target or system = Phosphatidylethanolamine-binding protein 1, with c-Raf (Homo sapiens, UniProt P30086); assay = RKIP-c-Raf interaction, co-immunoprecipitation; system = HEK293T; setting = 10 µM, 4 h; measurement = binding; result = no effect
Compound = CC(=O)NC(Cc1ccc(Br)c(Cl)c1)C(=O)N[C@@H](C)C(=O)N1CCC[C@H]1C(=O)N1CCC[C@H]1C(=O)N[C@@H](CCC(=O)O)C(=O)N[C@@H](Cc1c[nH]cn1)C(=O)N[C@@H](CO)C(=O)N[C@H](C(=O)N[C@@H](C)C(N)=O)[C@@H](C)OP(=O)(O)O (stereo partly shown); target or system = CSNK1A1 (Homo sapiens, UniProt P48729); setting = 10 µM; measurement = inhibition; result = 0.94 ± 0.05%
Compound = NC(=S)N/N=C/c1cccc(OCc2ccccc2)c1; target or system = MAOA (Homo sapiens, UniProt P21397); assay = enzyme activity, inhibitor, absorbance; setting = 10 µM; measurement = remaining activity; result = 10%
Compound = CN(C)C(=O)[C@@H](NC(=O)c1cnccc1-c1ccc(C(F)(F)F)cc1)c1cc(Cl)cc(C(F)(F)F)c1; target or system = NKG2-D type II integral membrane protein, with ULBP6 (KLRK1, Homo sapiens, UniProt P26718); assay = ligand binding, inhibitor, TR-FRET; system = HEK293 expressing NKG2D and DAP10; setting = together with: ULBP6-AF647; scale = relative to: positive control; measurement = maximum inhibition; result = 102%
Compound = O=C(Nc1ccccc1Nc1ccccc1)c1cccnc1Cl; target or system = Succinate dehydrogenase complex (Sus scrofa, UniProt A5GZW8+D0VWV4+Q007T0+Q0QF01); assay = enzyme activity, double-antibody sandwich ELISA; setting = 8 µM; measurement = inhibition; result = 55%
Compound = CC(C)C[C@@H](N)C(=O)NCC(=O)N[C@H](C)C(=O)N[C@H](CO)C(=O)N[C@H](Cc1c[nH]c2ccccc12)C(=O)N[C@H](Cc1c[nH]cn1)C(=O)N[C@H](CCCNC(=N)N)C(=O)N1CCC[C@@H]1C(=O)N[C@H](CC(=O)O)C(=O)N[C@H](CCCCN)C(=O)N[C@H](CCCCN)C(=O)N[C@H](CCCNC(=N)N)C(=O)NCCCCCC(=O)N[C@@H](CCCCN)C(=O)N[C@@H](CCCNC(=N)N)C(=O)N[C@@H](CCCCN)C(=O)N[C@H](C(=O)N[C@@H](CC(N)=O)C(=O)N[C@@H](CC(N)=O)C(=O)N[C@@H](CC(N)=O)C(=O)N1CCC[C@H]1C(=O)N[C@@H](CCCNC(=N)N)C(=O)N[C@H](C(=O)N[C@@H](CS)C(N)=O)[C@@H](C)O)[C@@H](C)O; target or system = CXCR4 (Homo sapiens, UniProt P61073, Y45A); assay = 12G5 antibody binding; setting = 200 nM, mutant Y45A; scale = relative to: wild type; measurement = binding affinity change; result = decreased
Compound = CC[C@H](C)[C@@H]1NC(=O)[C@H](Cc2ccc(O)cc2)NC(=O)[C@@H](N)CSSC[C@@H](C(=O)N2CCC[C@H]2C(=O)N[C@@H](CC(C)C)C(=O)NCC(N)=O)NC(=O)[C@H](CC(N)=O)NC(=O)[C@H](CCC(N)=O)NC1=O; target or system = Oxytocin receptor (OXTR, Homo sapiens, UniProt P30559); assay = Ca2+ mobilisation, agonist; system = CHO cells; measurement = Emax; result = 3870 RFU
Compound = CC[C@H](C)[C@H](NC(=O)[C@H](Cc1c[nH]cn1)NC(=O)[C@H](CCCCNC(=O)[C@@H](NC(=O)[C@H](CCCCN)NC(=O)CSC[C@H](NC(=O)[C@H](Cc1ccccc1)NC(=O)[C@H](CCCCNC(=O)[C@H](CC(C)C)NC(=O)[C@@H]1CCCN1C(=O)[C@H](CCCCN)NC(=O)C[C@@H]1O[C@@H](C)[C@@H](O)[C@@H](O)[C@@H]1O)NC(=O)[C@H](CC(C)C)NC(=O)[C@@H]1CCCN1C(=O)[C@H](CCCCN)NC(=O)c1ccc(O[C@@H]2O[C@H](CO)[C@H](O)[C@H](O)[C@H]2O)cc1)C(N)=O)[C@@H](C)CC)NC(=O)[C@@H](NC(=O)[C@H](CCCCN)NC(=O)CSC[C@H](NC(=O)[C@H](Cc1ccccc1)NC(=O)[C@H](CCCCNC(=O)[C@H](CC(C)C)NC(=O)[C@@H]1CCCN1C(=O)[C@H](CCCCN)NC(=O)C[C@@H]1O[C@@H](C)[C@@H](O)[C@@H](O)[C@@H]1O)NC(=O)[C@H](CC(C)C)NC(=O)[C@@H]1CCCN1C(=O)[C@H](CCCCN)NC(=O)c1ccc(O[C@@H]2O[C@H](CO)[C@H](O)[C@H](O)[C@H]2O)cc1)C(N)=O)[C@@H](C)CC)C(N)=O; target or system = lecA (Pseudomonas aeruginosa, UniProt Q05097); assay = binding, isothermal titration calorimetry; setting = divided by galactoside copies; scale = relative to: monovalent galactoside KD over ligand KD; measurement = relative potency per galactoside; result = 20
Compound = CCN(Cc1ccccc1)C(=O)CCc1nc(CN2CCN(C(=O)Cc3ccc(OC)c(OC)c3)CC2)no1; target or system = SCN9A (Homo sapiens, UniProt Q15858); assay = sodium current, whole-cell patch clamp; system = HEK293, stable; setting = 1 µM; measurement = inactivation V1/2; result = -77 ± 7.18 mV
Compound = COP(=O)(O)O; target or system = Alkaline phosphatase PafA (pafA, Elizabethkingia meningoseptica, UniProt Q9KJX5, R164A); system = Chryseobacterium meningosepticum; setting = pH 8.0; scale = relative to: wild type over mutant kcat/KM; measurement = relative catalytic efficiency; result = 2000
Compound = CCCCC/C=C\C/C=C\C/C=C\C/C=C\CCCC(=O)NC(CO)CO; target or system = Voltage-gated potassium channel, KQT; KCNQ2(Kv7.2)/KCNQ3(Kv7.3) (KCNQ3/KCNQ2, Homo sapiens, UniProt O43525+O43526); assay = two-electrode voltage clamp; system = Xenopus oocytes; setting = 10 µM; measurement = maximal conductance; result = no effect
Compound = C[C@H]1[C@H]2CCC[C@]1(c1cccc(O)c1)CCN2CCc1ccccc1; target or system = Oprm1; assay = GTPγS binding, agonist, radiometric; setting = cell membranes; measurement = Emax; result = 20.8%
Compound = Cc1cc([C@H](NC(=O)c2cnccc2-c2ccc(C(F)(F)F)cc2)C(=O)N(C)C)cc(C(F)(F)F)c1; target or system = NKG2-D type II integral membrane protein, with MICA (KLRK1, Homo sapiens, UniProt P26718); assay = ligand binding, inhibitor, TR-FRET; system = HEK293 expressing NKG2D and DAP10; setting = together with: MICA-Alexa647; scale = relative to: positive control; measurement = maximum inhibition; result = 102 ± 30.6%
Compound = C[n+]1ccc(C(=O)NC2CCC3(O)C4Cc5ccc(O)c6c5C3(CC[N+]4(C)CC3CC3)C2O6)cc1 (stereo not shown); target or system = Oprm1; assay = G protein activation, agonist; scale = relative to: 3 µM DAMGO; measurement = Emax; result = 40.7 ± 2.04%

Excerpt of the above:
Compound = CCCCC/C=C\C/C=C\C/C=C\C/C=C\CCCC(=O)NC(CO)CO; target or system = Voltage-gated potassium channel, KQT; KCNQ2(Kv7.2)/KCNQ3(Kv7.3) (KCNQ3/KCNQ2, Homo sapiens, UniProt O43525+O43526); assay = two-electrode voltage clamp; system = Xenopus oocytes; setting = 10 µM; measurement = maximal conductance; result = no effect
Compound = C[C@H]1[C@H]2CCC[C@]1(c1cccc(O)c1)CCN2CCc1ccccc1; target or system = Oprm1; assay = GTPγS binding, agonist, radiometric; setting = cell membranes; measurement = Emax; result = 20.8%
